Measured values from different studies.
T1: PSMG3/PSMG4 heterodimer (Homo sapiens); chain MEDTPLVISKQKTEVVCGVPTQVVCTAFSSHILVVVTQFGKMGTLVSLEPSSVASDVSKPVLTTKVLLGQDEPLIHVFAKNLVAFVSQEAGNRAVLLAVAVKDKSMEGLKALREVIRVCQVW; chain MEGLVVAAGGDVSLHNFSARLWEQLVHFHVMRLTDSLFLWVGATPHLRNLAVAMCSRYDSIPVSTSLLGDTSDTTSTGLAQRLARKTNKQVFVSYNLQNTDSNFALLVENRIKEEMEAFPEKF
B1: ND2 1-469 (Yarrowia lipolytica, UniProt Q9B6C8); sequence looked up; chain MLILAIISLITFVSMSKLSDNRAIIRLINIYLILVLVLDSFLYLLFLNNQTYTVMGELLIFNSFTFYIDMLIYFIMIVISSLYGYNLYNNNLYKTLFEPKKELIILFLINILGALLIVHSNDFITLFVAIELQSYSIYLITAIYNSSYKASKASMLYFFMGGILSILIAYSINTYYSVLNSYTLHSLDSLIINTLDLNLILIALSLGLLFKIGIAPLHKWLISIYENTPILITIYISLIPKISILSYLVLSNISINSLVISILAILTLLVGSVGGLLQIKIKRLLAFSGLTNAGYMMLLLLLNNNEFSYLYYITQYSISHLAIFMIIIFSIYYINYINNQYNPIIYVNQLKGLIHDNAYLVLSMAIVVFSFIGIPPLLGFFGKLNILMSILNNGYYFISIVLIVASLISALYYLYLLNVSIQDKNNILINSNETVSSVLSYILSSLIILITFGFIYNSLIIDIFNVYFN
B2: RBCK1 195-442 (Homo sapiens, UniProt Q9BYM8-1); chain VGWQCPGCTFINKPTRPGCEMCCRARPEAYQVPASYQPDEEERARLAGEEEALRQYQQRKQQQQEGNYLQHVQLDQRSLVLNTEPAECPVCYSVLAPGEAVVLRECLHTFCRECLQGTIRNSQEAEVSCPFIDNTYSCSGKLLEREIKALLTPEDYQRFLDLGISIAENRSAFSYHCKTPDCKGWCFFEDDVNEFTCPVCFHVNCLLCKAIHEQMNCKEYQEDLALRAQNDVAARQTTEMLKVMLQQG
B3: ELM1 421-640 (Saccharomyces cerevisiae, UniProt P32801); sequence looked up; chain SSSSVNPVRNEGPVRRFFGRLLTKKGKKKTSGKGKDKVLVSATSKVTPSIHIDEEPDKECFSTTVLRSSPDSSDYCSSLGEEAIQVTDFLDTFCRSNESLPNLTVNNDKQNSDMKTDRSESSSHSSLKIPTPIKAMIRLKSSPKENGNRTHINCSQDKPSSPLMDRTVGKRTVNNSGARKLAHSSNILNFKAYINSEDSDIRETVEDVKTYLNFADNGQI
B4: CCDC32 (Mus musculus, UniProt Q8BS39); chain MKMFESLDSSATKSGRDLWAEICSCLPSPAQEDVSDNAFSDSFMDSHPAGESHTAAADSAVQPAGKPWAPLHDSEVYLASLEKKLRRIKGLNEEVTSKDMLRTLAQAKKECWDRFLQEKLASEFFVDGLDSDERTLEHFKRWLQPDKVAISTEEVQFLIPPESQAEKPEAGDKPAAAEQ
B5: human FKBP4; sequence looked up; chain MTAEEMKATESGAQSAPLPMEGVDISPKQDEGVLKVIKREGTGTEMPMIGDRVFVHYTGWLLDGTKFDSSLDRKDKFSFDLGKGEVIKAWDIAIATMKVGEVCHITCKPEYAYGSAGSPPKIPPNATLVFEVELFEFKGEDLTEEEDGGIIRRIQTRGEGYAKPNEGAIVEVALEGYYKDKLFDQRELRFEIGEGENLDLPYGLERAIQRMEKGEHSIVYLKPSYAFGSVGKEKFQIPPNAELKYELHLKSFEKAKESWEMNSEEKLEQSTIVKERGTVYFKEGKYKQALLQYKKIVSWLEYESSFSNEEAQKAQALRLASHLNLAMCHLKLQAFSAAIESCNKALELDSNNEKGLFRRGEAHLAVNDFELARADFQKVLQLYPNNKAAKTQLAVCQQRIRRQLAREKKLYANMFERLAEEENKAKAEASSGDHPTDTEMKEEQKSNTAGSQSQVETEA
B6: GP1BA 17-306 D235Y/M239V (Homo sapiens, UniProt P07359); sequence looked up; chain HPICEVSKVASHLEVNCDKRNLTALPPDLPKDTTILHLSENLLYTFSLATLMPYTRLTQLNLDRCELTKLQVDGTLPVLGTLDLSHNQLQSLPLLGQTLPALTVLDVSFNRLTSLPLGALRGLGELQELYLKGNELKTLPPGLLTPTPKLEKLSLANNNLTELPAGLLNGLENLDTLLLQENSLYTIPKGFFGSHLLPFAFLHGNPWLCNCEILYFRRWLQDNAENVYVWKQGVYVKAVTSNVASVQCDNSDKFPVYKYPGKGCPTLGDEGDTDLYDYYPEEDTEGDKVR
B7: RAV1 679-898 (Saccharomyces cerevisiae, UniProt P47104); sequence looked up; chain NTPSYLPIEKIDITAHTAHNIGDSVWMKNGTFVVASGNQFYIKDKSLDLTDPFTYQSIGSRKILSNDILHLSSVLNGPLPVYHPQFLIQAIYANKLQLVKELLLRLFLALRKLDFESQDVSNLDSNLGMDPLKYFIAKDRDYPVESFPDPYPCFNKTVSLALTEQLTKTTLPYLTRHQQITLITVIEAVDEVTKNENIVDYNGVRFLLGVKLFLSHKNIQ
B8: CLNS1A 2-237 (Homo sapiens, UniProt P54105); sequence looked up; chain SFLKSFPPPGPAEGLLRQQPDTEAVLNGKGLGTGTLYIAESRLSWLDGSGLGFSLEYPTISLHALSRDRSDCLGEHLYVMVNAKFEEESKEPVADEEEEDSDDDVEPITEFRFVPSDKSALEAMFTAMCECQALHPDPEDEDSDDYDGEEYDVEAHEQGQGDIPTFYTYEEGLSHLTAEGQATLERLEGMLSQSVSSQYNMAGVRTEDSIRDYEDGMEVDTTPTVAGQFEDADVDH
B9: prw1 1-431 (Schizosaccharomyces pombe, UniProt O14021); chain MAVSAVPHPSKQAQASEEGINQEKCINEEYKIWKKNSPFLYDLIITRALEWPCMSLQWYPEQQIFAEHGYTEQKMFLGVRADVGKYLLAVASIQLPYLNQTVPPTTMEGASAGDESSLRVNISNLYSHPESVCSAKLMPQDDSCVATVGNYHNDVLVFDKESFESYSSASESPLKPKYRLTKHTQPCTSVCWNFLSKGTLVSGSQDATLSCWDLNAYNESDSASVLKVHISSHEKQVSDVRFHYKHQDLLASVSYDQYLHVHDIRRPDASTKPARSVHAHSGPIHSVAFNPHNDFILATCSTDKTIALWDLRNLNQRLHTLEGHEDIVTKISFSPHEEPILASTSADRRTLVWDLSRIGEDQPAEEAQDGPPELLFMHGGHTSCTIDMDWCPNYNWTMATAAEDNILQIWTPSRSIWGNEQLEEDATAYLS
B10: PSMA5 (Homo sapiens, UniProt P28066); chain MFLTRSEYDRGVNTFSPEGRLFQVEYAIEAIKLGSTAIGIQTSEGVCLAVEKRITSPLMEPSSIEKIVEIDAHIGCAMSGLIADAKTLIDKARVETQNHWFTYNETMTVESVTQAVSNLALQFGEEDADPGAMSRPFGVALLFGGVDEKGPQLFHMDPSGTFVQCDARAIGSASEGAQSSLQEVYHKSMTLKEAIKSSLIILKQVMEEKLNATNIELATVQPGQNFHMFTKEELEEVIKDI
B11: PRPS1 (human); sequence looked up; chain PNIKIFSGSSHQDLSQKIADRLGLELGKVVTKKFSNQETCVEIGESVRGEDVYIVQSGCGEINDNLMELLIMINACKIASASRVTAVIPCFPYARQDKKDKSRAPISAKLVANMLSVAGADHIITMDLHASQIQGFFDIPVDNLYAEPAVLKWIRENISEWRNCTIVSPDAGGAKRVTSIADRLNVDFALIHKERKKANEVDRMVLVGDVKDRVAILVDDMADTCGTICHAADKLLSAGATRVYAILTHGIFSGPAISRINNACFEAVVVTNTIPQEDKMKHCSKIQVIDISMILAEAIRRTHNGESVSYLFSHVPL
B12: VIP1 165-341 (Arabidopsis thaliana, UniProt Q9MA75); sequence looked up; chain SILASVSGKDSGKKNMGMGGDRLAELALLDPKRAKRILANRQSAARSKERKIRYTGELERKVQTLQNEATTLSAQVTMLQRGTSELNTENKHLKMRLQALEQQAELRDALNEALRDELNRLKVVAGEIPQGNGNSYNRAQFSSQQSAMNQFGNKTNQQMSTNGQPSLPSYMDFTKRG
B13: NOTCH4 276-511 (Homo sapiens, UniProt Q99466); sequence looked up; chain NPDNCVSHQCQNGGTCQDGLDTYTCLCPETWTGWDCSEDVDECETQGPPHCRNGGTCQNSAGSFHCVCVSGWGGTSCEENLDDCIAATCAPGSTCIDRVGSFSCLCPPGRTGLLCHLEDMCLSQPCHGDAQCSTNPLTGSTLCLCQPGYSGPTCHQDLDECLMAQQGPSPCEHGGSCLNTPGSFNCLCPPGYTGSRCEADHNECLSQPCHPGSTCLDLLATFHCLCPPGLEGQLCE
B14: TFC4 1-1025 (Saccharomyces cerevisiae, UniProt P33339); chain MAAGKLKKEQQNQSAERESADTGKVNDEDEEHLYGNIDDYKHLIQDEEYDDEDVPHDLQLSEDEYNSERDSSLLAEFSDYGEISEDDEEDFMNAIREASNFKVKKKKKNDKGKSYGRQRKERVLDPEVAQLLSQANEAFVRNDLQVAERLFNEVIKKDARNFAAYETLGDIYQLQGRLNDCCNSWFLAAHLNASDWEFWKIVAILSADLDHVRQAIYCFSRVISLNPMEWESIYRRSMLYKKTGQLARALDGFQRLYMYNPYDANILRELAILYVDYDRIEDSIELYMKVFNANVERREAILAALENALDSSDEESAAEGEDADEKEPLEQDEDRQMFPDINWKKIDAKYKCIPFDWSSLNILAELFLKLAVSEVDGIKTIKKCARWIQRRESQTFWDHVPDDSEFDNRRFKNSTFDSLLAAEKEKSYNIPIDIRVRLGLLRLNTDNLVEALNHFQCLYDETFSDVADLYFEAATALTRAEKYKEAIDFFTPLLSLEEWRTTDVFKPLARCYKEIESYETAKEFYELAIKSEPDDLDIRVSLAEVYYRLNDPETFKHMLVDVVEMRKHQVDETLHRISNEKSSNDTSDISSKPLLEDSKFRTFRKKKRTPYDAERERIERERRITAKVVDKYEKMKKFELNSGLNEAKQASIWINTVSELVDIFSSVKNFFMKSRSRKFVGILRRTKKFNTELDFQIERLSKLAEGDSVFEGPLMEERVTLTSATELRGLSYEQWFELFMELSLVIAKYQSVEDGLSVVETAQEVNVFFQDPERVKMMKFVKLAIVLQMDDEEELAENLRGLLNQFQFNRKVLQVFMYSLCRGPSSLNILSSTIQQKFFLRQLKAFDSCRYNTEVNGQASITNKEVYNPNKKSSPYLYYIYAVLLYSSRGFLSALQYLTRLEEDIPDDPMVNLLMGLSHIHRAMQRLTAQRHFQIFHGLRYLYRYHKIRKSLYTDLEKQEADYNLGRAFHLIGLVSIAIEYYNRVLENYDDGKLKKHAAYNSIIIYQQSGNVELADHLMEKYLSI
B15: pmoA (Methylococcus capsulatus, UniProt Q607G3); sequence looked up; chain MSAAQSAVRSHAEAVQVSRTIDWMALFVVFFVIVGSYHIHAMLTMGDWDFWSDWKDRRLWVTVTPIVLVTFPAAVQSYLWERYRLPWGATVCVLGLLLGEWINRYFNFWGWTYFPINFVFPASLVPGAIILDTVLMLSGSYLFTAIVGAMGWGLIFYPGNWPIIAPLHVPVEYNGMLMSIADIQGYNYVRTGTPEYIRMVEKGTLRTFGKDVAPVSAFFSAFMSILIYFMWHFIGRWFSNERFLQST
Chain of UniProt P34111 (whole entry, looked up): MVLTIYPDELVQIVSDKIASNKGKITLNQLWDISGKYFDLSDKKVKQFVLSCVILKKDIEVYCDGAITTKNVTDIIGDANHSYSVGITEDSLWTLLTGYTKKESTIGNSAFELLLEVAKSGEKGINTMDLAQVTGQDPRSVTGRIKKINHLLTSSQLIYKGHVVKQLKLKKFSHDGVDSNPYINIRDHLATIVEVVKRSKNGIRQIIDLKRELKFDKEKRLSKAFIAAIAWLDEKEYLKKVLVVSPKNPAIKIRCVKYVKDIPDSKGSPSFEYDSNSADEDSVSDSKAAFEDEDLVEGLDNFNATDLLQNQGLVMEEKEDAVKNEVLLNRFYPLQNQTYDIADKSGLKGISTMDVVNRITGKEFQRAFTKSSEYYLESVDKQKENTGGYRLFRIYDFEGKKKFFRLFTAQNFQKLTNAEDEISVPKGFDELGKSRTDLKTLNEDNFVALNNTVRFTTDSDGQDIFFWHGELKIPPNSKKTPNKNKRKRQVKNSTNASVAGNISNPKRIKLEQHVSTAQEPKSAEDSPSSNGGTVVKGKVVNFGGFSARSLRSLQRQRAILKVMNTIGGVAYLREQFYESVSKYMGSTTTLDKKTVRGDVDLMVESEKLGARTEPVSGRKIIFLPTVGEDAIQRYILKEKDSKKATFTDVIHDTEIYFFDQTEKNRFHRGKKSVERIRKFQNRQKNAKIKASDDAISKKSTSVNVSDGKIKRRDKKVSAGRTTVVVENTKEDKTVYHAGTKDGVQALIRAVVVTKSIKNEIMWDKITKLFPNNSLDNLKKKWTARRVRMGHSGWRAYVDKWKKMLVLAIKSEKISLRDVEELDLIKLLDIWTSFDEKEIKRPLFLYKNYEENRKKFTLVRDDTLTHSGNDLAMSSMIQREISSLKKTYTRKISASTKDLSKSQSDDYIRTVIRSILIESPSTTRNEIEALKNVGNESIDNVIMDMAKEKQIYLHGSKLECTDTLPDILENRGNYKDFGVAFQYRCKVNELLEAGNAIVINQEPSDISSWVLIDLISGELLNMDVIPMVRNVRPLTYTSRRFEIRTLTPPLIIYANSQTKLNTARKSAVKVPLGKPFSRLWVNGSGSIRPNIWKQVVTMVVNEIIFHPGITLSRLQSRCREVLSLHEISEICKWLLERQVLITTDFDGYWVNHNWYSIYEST
Chain of UniProt G5EC37 (whole entry, looked up): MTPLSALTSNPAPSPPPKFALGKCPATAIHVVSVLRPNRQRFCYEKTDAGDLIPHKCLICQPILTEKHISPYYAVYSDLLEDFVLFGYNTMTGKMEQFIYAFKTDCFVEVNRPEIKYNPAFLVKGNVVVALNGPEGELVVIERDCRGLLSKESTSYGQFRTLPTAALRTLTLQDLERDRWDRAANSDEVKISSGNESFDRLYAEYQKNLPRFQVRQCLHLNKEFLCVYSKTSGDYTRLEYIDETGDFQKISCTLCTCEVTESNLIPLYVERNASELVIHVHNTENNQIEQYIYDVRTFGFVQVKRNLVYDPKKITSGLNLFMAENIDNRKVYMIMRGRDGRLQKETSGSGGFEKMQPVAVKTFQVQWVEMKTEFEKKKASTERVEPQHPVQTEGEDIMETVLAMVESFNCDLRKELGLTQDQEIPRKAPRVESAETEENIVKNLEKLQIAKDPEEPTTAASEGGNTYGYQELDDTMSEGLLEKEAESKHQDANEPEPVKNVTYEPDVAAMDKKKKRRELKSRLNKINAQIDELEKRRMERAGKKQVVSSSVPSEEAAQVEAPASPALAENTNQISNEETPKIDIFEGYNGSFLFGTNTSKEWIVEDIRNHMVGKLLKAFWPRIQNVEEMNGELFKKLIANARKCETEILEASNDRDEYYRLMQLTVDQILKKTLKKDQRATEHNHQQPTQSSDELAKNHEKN
Chain of UniProt Q95XR4 (whole entry, looked up): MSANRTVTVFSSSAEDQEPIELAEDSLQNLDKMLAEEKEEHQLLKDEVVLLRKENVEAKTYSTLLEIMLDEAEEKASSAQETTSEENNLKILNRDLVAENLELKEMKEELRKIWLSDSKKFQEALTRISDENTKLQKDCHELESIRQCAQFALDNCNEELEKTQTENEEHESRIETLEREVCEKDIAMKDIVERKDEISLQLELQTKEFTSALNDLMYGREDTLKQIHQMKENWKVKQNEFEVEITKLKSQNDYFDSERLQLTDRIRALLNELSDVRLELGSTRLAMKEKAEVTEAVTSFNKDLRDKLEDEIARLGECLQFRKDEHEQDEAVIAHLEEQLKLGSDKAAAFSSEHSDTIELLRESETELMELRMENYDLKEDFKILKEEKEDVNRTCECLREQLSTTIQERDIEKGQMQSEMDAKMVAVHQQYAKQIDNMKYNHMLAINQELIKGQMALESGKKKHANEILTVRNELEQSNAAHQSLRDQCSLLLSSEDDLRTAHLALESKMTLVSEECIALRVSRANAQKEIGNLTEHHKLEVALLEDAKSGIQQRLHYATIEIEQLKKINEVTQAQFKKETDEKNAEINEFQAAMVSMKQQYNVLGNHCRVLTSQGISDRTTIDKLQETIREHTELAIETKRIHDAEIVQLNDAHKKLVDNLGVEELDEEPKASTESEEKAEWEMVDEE
Chain of UniProt Q9B6D3 (whole entry, looked up): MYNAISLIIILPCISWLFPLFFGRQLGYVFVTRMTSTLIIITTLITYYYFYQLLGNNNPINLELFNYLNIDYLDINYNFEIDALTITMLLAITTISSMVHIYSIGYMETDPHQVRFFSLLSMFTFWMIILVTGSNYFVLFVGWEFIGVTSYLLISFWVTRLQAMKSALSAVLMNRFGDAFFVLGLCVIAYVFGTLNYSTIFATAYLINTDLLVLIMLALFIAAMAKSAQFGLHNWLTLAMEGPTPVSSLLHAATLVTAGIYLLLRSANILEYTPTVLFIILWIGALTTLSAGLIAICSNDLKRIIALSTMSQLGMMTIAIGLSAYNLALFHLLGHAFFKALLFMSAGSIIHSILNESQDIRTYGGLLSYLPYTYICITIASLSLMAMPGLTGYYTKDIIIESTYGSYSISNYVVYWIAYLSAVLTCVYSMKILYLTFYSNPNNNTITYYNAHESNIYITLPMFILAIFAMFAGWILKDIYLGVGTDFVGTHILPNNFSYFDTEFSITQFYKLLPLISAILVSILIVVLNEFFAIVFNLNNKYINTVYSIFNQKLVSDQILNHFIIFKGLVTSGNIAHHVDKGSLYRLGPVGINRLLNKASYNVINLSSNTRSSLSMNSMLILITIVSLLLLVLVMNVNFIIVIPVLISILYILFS
Chain of UniProt P84091 (whole entry, looked up): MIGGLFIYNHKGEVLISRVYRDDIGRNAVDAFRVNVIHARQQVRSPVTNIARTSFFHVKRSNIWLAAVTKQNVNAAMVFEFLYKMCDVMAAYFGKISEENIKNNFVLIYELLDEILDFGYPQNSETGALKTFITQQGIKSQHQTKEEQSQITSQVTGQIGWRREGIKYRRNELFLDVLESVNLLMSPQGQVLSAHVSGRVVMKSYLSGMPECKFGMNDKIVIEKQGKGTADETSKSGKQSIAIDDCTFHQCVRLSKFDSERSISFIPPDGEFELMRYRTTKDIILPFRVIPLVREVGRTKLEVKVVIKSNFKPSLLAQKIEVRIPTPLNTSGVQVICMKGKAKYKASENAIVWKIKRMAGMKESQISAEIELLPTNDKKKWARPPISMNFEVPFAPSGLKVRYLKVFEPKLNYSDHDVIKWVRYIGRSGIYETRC
Chain of UniProt Q9FEE2 (whole entry, looked up): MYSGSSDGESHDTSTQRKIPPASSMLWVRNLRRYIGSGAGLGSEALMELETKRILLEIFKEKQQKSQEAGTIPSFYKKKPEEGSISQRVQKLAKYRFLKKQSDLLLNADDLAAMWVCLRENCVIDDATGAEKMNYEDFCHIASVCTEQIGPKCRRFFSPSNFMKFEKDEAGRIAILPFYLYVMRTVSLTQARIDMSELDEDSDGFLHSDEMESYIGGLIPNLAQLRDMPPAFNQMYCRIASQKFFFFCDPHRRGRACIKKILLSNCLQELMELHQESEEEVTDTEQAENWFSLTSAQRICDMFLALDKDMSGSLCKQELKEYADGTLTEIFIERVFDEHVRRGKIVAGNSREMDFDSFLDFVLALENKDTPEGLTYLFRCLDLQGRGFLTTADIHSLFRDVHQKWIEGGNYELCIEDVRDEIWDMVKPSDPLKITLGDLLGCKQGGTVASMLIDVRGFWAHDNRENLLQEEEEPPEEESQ
Chain of UniProt O95931 (whole entry, unmodified, looked up): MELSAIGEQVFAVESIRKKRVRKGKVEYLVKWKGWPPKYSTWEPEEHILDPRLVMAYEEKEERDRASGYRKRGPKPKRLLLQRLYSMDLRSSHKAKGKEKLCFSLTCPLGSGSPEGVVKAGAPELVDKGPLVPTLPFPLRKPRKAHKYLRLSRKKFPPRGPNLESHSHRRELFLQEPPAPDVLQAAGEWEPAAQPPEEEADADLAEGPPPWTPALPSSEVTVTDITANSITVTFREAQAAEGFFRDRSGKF
Chain of UniProt G1UBD1 (whole entry, looked up): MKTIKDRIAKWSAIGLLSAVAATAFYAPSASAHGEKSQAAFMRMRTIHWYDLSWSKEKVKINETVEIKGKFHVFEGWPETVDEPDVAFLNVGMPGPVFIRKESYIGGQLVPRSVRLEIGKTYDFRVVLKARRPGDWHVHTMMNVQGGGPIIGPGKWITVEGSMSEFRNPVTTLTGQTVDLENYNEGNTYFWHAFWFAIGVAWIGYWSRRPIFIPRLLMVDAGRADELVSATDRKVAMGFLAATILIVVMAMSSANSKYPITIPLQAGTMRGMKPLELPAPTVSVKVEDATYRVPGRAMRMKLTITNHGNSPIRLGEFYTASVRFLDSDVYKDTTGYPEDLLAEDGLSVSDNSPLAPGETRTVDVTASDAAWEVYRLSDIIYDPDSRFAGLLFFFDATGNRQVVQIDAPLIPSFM

B1 (ND2 1-469) — binding (ND5 1-655 (Yarrowia lipolytica, UniProt Q9B6D3); cryo-EM): binds
B2 (RBCK1 195-442) — binding (linear tetra-ubiquitin four Ub units (UniProt P0CG48); ITC; 25 °C): binds
epg-2 (Caenorhabditis elegans, UniProt Q95XR4) — binding (sepa-1 (Caenorhabditis elegans, UniProt G5EC37); pull-down): binds
B3 (ELM1 421-640) — binding (GIN4 (Saccharomyces cerevisiae, UniProt Q12263); pull-down): binds
B4 (CCDC32) — binding (Ap2m1 122-435 (Mus musculus, UniProt P84091); pull-down): binds
B5 (human FKBP4) — log2 fold change (PP6C (human); co-immunoprecipitation, IP-MS; CYB5R4 knockout cells; concentration not given; baseline: CYB5R4 knockout over parental): 2.33
B6 (GP1BA 17-306 D235Y/M239V) — binding (VWF mature, recombinant (Homo sapiens, UniProt P04275); ELISA): binds
B7 (RAV1 679-898) — binding (VPH1 1-372 (Saccharomyces cerevisiae, UniProt P32563); pull-down): binds
B8 (CLNS1A 2-237) — binding (PRMT5/WDR77 full length, hetero-octamer (Homo sapiens); SPR): binds
B9 (prw1 1-431) — binding (pst2 1-1075 (Schizosaccharomyces pombe, UniProt O13919); cryo-EM): binds
RKAKTKEGKGPNARRK (CHD4 258-273 (Homo sapiens, UniProt Q14839); sequence looked up) — binding (ATRX 1-321 Y203A (Homo sapiens, UniProt P46100); ITC; peptide; 25 °C): binds
B10 (PSMA5) — binding (T1, PSMG3/PSMG4 heterodimer (Homo sapiens); cryo-EM): binds
B11 (PRPS1) — log2 fold change (PP6C (human); co-immunoprecipitation, IP-MS; CYB5R4 knockout cells; concentration not given; baseline: CYB5R4 knockout over parental): -2.66
B12 (VIP1 165-341) — binding (FASS (Arabidopsis thaliana, UniProt Q9FEE2); pull-down): binds
B13 (NOTCH4 276-511) — binding (DLL4 27-400 (Homo sapiens, UniProt Q9NR61); SPR): binds
B14 (TFC4 1-1025) — binding (TFC3 1-1160 (Saccharomyces cerevisiae, UniProt P34111); cryo-EM): binds
ARTKQTARKSTGGKA (H3 peptide residues 1-x; K9me3, N-terminal fluorescein) — binding (CBX7 8-62 L49D/D50C (Homo sapiens, UniProt O95931); FP; peptide): binds
B15 (pmoA) — binding (pmoB 33-414 (Methylococcus capsulatus, UniProt G1UBD1); cryo-EM): binds

For quick reference, copied from above:
B11 (PRPS1) — log2 fold change (PP6C (human); co-immunoprecipitation, IP-MS; CYB5R4 knockout cells; concentration not given; baseline: CYB5R4 knockout over parental): -2.66
B1 (ND2 1-469) — binding (ND5 1-655 (Yarrowia lipolytica, UniProt Q9B6D3); cryo-EM): binds
